Published values pooled from the literature.
Every numbered part comes from another study and shows a few of its results, in no order. Substitutions count along the parent as printed.

Block 1
Target: CCNE2, cyclin fold, Cln2 fusion (human)
Technique: yeast growth competition, sequencing
Medium: yeast
Notes: strong parent motif
Reference: not given
Reading: higher = stronger binding
Quantity: normalised enrichment score
Starting sequence: CDKN1A docking peptide (human); SKACRRLFGPVDS; partner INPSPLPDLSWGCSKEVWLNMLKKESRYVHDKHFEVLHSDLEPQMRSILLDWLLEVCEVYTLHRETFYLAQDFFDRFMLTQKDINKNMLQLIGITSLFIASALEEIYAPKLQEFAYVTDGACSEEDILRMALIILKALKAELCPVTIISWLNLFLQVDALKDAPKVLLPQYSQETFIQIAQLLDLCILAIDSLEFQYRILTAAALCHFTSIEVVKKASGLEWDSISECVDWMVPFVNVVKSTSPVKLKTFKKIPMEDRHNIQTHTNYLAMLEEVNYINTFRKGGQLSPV
A3V: 4.91
K2T: 3.96
P10A: 3.66
L7Y: 0.409
A3E: 0.623
K2E: 2.24
D12A: 2.91
R5L: 0.432
L7C: 0.175
G9R: 2.28
P10N: 4.03
C4Q: 1.21
V11Y: 4.43
L7I: 0.882
V11H: 3.96

Block 2
Target: Histone acetyltransferase KAT6A, both winged helices, GST fusion (KAT6A, Homo sapiens, UniProt Q92794, residues 1-181)
Technique: protein binding microarray
Form: double-stranded DNA, one strand shown
Medium: in vitro
Tested at: not given
Notes: 8-mer, flanks averaged, mean of 2 arrays, mostly near background
Reference: not given
Reading: higher = stronger binding
Quantity: E-score
Target sequence (chain): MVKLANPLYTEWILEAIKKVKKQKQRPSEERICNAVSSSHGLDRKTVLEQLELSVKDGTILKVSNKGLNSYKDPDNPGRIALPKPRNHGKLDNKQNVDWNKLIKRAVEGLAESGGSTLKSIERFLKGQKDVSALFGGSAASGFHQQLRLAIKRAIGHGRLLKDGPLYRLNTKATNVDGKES
CCTTAACC: -0.138
GTGTCGAA: -0.0799
CCTGCCAA: -0.217
AACATATG: -0.0611
ACTTGCAA: -0.0176
AGTTGTAC: 0.0783
GAGCGGCA: 0.26
AAAGATAA: -0.044
AGATAGAG: -0.245
AGACCCTG: -0.205
CGGGCGCA: 0.278
GTTGTGCA: -0.142
CACACGGC: 0.289
CTCACGAA: -0.096
TACCGTAA: 0.155
CCTTGACC: -0.0228
ACTACGTC: -0.0389

Block 3
Target: Transcriptional repressor CTCF (CTCF, Homo sapiens, UniProt P49711, residues 1-727, full length assumed)
Chain of UniProt P49711 (whole entry, looked up): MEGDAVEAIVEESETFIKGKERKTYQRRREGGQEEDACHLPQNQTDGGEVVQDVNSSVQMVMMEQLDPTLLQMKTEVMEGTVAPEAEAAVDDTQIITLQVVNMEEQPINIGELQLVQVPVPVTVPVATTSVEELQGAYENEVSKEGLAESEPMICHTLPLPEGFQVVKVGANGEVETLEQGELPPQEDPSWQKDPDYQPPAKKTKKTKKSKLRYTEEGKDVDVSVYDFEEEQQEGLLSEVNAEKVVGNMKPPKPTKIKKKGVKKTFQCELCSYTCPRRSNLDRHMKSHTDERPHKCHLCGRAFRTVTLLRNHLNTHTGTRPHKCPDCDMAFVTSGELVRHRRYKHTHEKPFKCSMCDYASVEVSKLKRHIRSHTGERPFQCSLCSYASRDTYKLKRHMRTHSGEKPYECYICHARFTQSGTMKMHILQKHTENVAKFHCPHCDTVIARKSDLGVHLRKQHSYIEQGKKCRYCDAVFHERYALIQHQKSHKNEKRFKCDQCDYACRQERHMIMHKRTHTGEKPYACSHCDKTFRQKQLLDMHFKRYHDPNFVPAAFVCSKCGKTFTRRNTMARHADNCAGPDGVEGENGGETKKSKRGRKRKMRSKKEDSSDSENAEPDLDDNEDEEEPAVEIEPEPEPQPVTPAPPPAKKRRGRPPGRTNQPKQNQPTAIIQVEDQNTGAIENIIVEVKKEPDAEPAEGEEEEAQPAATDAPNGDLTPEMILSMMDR
Technique: protein-binding microarray
Form: double-stranded DNA, one strand shown
Medium: in vitro
Tested at: not given
Notes: k-mer, scored over probes, only values ≥0.25
Reading: higher = stronger binding
Quantity: E-score
ATGGCGCG: 0.251
TATATGAA: 0.298
AACAAATA: 0.342
CATTAAAA: 0.308
TGGCGCCA: 0.331
GAATATTA: 0.307
CAAAATAA: 0.294
ATTAATTC: 0.298
AAACAGTA: 0.266
CGCGCCCC: 0.343
ACCATTAA: 0.331
ATACTCAA: 0.265
GTAGTATA: 0.307
ATATGTGG: 0.342
AATGGCGC: 0.36

Block 4
Target: Sal-like protein 4, full length isoform A (SALL4, Homo sapiens, UniProt Q9UJQ4, residues 1-1053)
Chain of UniProt Q9UJQ4 (whole entry, looked up): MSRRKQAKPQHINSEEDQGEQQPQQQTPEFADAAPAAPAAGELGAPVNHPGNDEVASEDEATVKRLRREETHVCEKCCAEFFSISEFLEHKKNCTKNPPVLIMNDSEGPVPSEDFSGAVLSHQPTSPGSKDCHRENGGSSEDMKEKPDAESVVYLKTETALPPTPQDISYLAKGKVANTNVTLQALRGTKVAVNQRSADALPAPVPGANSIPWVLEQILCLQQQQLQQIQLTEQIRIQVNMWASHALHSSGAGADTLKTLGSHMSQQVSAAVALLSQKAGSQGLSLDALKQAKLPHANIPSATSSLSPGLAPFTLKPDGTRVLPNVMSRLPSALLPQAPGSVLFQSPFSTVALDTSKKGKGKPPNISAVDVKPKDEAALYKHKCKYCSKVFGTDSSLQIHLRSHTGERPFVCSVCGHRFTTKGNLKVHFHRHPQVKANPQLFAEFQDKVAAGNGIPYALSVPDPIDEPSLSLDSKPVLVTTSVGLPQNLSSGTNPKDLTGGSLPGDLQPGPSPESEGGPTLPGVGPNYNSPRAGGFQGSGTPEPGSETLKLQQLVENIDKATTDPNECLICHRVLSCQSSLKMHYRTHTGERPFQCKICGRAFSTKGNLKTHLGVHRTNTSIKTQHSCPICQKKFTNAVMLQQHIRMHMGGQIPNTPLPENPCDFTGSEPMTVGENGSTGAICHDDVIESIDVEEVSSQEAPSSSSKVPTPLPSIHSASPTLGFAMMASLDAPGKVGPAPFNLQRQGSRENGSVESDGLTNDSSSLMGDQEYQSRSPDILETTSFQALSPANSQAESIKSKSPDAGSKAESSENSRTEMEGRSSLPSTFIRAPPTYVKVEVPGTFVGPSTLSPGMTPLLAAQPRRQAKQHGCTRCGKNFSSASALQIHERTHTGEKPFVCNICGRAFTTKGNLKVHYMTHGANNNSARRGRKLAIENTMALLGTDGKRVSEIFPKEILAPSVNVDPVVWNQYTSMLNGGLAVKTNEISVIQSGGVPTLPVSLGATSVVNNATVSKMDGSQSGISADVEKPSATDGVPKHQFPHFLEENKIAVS
Technique: universal PBM
Form: double-stranded DNA, one strand shown
Medium: in vitro
Tested at: 600 nM
Notes: 8-mer, flanks averaged, mean of replicates
Reading: higher = stronger binding
Quantity: E-score
ACTGAACG: -0.0327
GATGCACC: -0.0995
ACATCAAT: 0.264
CTATGAGA: 0.103
ATTACGCC: 0.0161
TAGTGCAA: 0.215
CGACCTTC: -0.0837
CACCGATA: 0.0983
AGTCTGGA: 0.0138
GCCACTAA: -0.0691
CTGACCTA: -0.0542
ATCATCTG: 0.00169
GATGCAAA: 0.167

Block 5
Target: Ras GTPase-activating protein-binding protein 1, full length (G3BP1, Homo sapiens, UniProt Q13283)
Chain of UniProt Q13283 (whole entry, looked up): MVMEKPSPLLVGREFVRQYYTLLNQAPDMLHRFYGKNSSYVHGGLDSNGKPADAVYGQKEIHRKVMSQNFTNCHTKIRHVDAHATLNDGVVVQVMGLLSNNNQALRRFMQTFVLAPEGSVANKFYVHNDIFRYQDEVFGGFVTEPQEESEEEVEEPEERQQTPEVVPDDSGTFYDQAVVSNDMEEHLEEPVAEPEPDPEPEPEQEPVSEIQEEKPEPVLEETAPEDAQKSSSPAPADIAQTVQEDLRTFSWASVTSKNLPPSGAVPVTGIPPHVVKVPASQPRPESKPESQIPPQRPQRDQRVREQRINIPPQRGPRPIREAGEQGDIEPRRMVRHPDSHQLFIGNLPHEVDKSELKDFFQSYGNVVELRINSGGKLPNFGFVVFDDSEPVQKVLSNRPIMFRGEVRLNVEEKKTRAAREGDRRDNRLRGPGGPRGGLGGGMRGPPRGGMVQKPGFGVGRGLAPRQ
Technique: RNA Bind-n-Seq
Form: RNA
Medium: in vitro
Tested at: 200 nM
Notes: whole 134-nt RNA, ends assumed
Together with: 150 mM LiCl
Reference: input library
Reading: higher = stronger binding
Quantity: log2 enrichment
Library: 7-deaza-guanosine replaces G
Shared flanks, not repeated: GGGAGUUCUACAGUCCGACGAUC … UGGAAUUCUCGGGUGUCAAGG
UCCUGUGCUACACAUCGUAUGUACCGAAUCGGAAAAAAAGGAAAAAAAGGAAAAAAAGGAAAGUAUUAUGUUACGCCGUUCGGAUCUGCA: -0.561
GUCCUGUGCUACACAUCGUAUGUACCGAAUCGGGUUUUUGGGUUUGGGAAAAAAAGGGAAAGUAUUAUGUUACGCCGUUCGGAUCUGCAC: -1.46
UGCUGGAGAUGCAAUAUAUGAGGUGGUGAGUCUACAGCGAGAGUCUGACAAGGAGGAACCAGUCACUCCUACUAGUGGAGGGGGUCCAAU: -3.83
UAUGCCACGCCCUUUGAGGACUCGAAGAUCAUGGUCUCUGACUUUGGACUCUCCAAAAUCCAGGCUGGGAACAUGCUAGGCACCGCCUGU: 0.235
UCCUCAAGUCCUGUGCUACACAUCGUAUGUACCGAAUCGGGUGGGGUGGUGGAAAGUAUUAUGUUACGCCGUUCGGAUCUGCACUUCCAG: -0.446
CCUGUGCUACACAUCGUAUGUACCGAAUCGGAAAAAAGGGAAAAAAGGGGAAAAAAGGGGAAAGUAUUAUGUUACGCCGUUCGGAUCUGC: 0.299
UCCUGUGCUACACAUCGUAUGUACCGAAUCGGGGUUUUUUGGUUUUUUGGGGUUUUUUGGAAAGUAUUAUGUUACGCCGUUCGGAUCUGC: 0.571

Block 6
Target: Interferon regulatory factor 7, full length, phosphomimetic (IRF7, Homo sapiens, UniProt Q92985, residues 1-503, S471D/S472D/S475D/S476D/S477D/S483D/S484D/S487D)
Technique: protein-binding microarray
Form: double-stranded DNA, one strand shown
Medium: in vitro
Tested at: 2200 nM top
Notes: 60-bp whole probe
Together with: salmon DNA 0.4 mg/ml
Reference: random background probes
Reading: higher = stronger binding
Quantity: fitted relative affinity
Shared flanks, not repeated: GCCTAGCAC … GTCTTGATTCGCTTGACGCTGCTG
Construct (chain): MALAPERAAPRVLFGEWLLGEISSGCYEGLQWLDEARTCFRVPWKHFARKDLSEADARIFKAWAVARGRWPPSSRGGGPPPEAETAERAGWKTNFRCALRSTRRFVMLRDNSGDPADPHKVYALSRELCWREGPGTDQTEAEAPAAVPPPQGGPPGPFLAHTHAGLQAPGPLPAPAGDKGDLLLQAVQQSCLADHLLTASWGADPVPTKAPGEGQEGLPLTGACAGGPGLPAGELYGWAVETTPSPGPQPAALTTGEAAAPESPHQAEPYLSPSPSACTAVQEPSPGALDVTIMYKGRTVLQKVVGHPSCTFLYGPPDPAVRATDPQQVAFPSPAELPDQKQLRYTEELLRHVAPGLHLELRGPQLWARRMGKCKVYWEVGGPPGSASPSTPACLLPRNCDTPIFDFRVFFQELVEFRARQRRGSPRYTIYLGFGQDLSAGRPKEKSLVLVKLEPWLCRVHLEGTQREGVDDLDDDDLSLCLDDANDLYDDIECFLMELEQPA
TTAAGTCTCCTTATCCTTTAGTGCTAG: 1.12 z-score
GACGGACTGGGACTGGGTACGTGCTAG: -0.853 z-score
TCACTTTTTTTAATTGAACTGTGCTAG: 0.917 z-score
CCACACACCATTCTCGGGACGTGCTAG: 1.24 z-score
GACGAACTGAGGACTGGAGACGTGCTA: -0.336 z-score
TCAATTTTGTGTTTTCAACTGTGCTAG: 1.73 z-score
CCAACTCGCCTTTTTTGTTGGTGCTAG: 1.49 z-score
GACGATTTCACTTTCGAGACGTGCTAG: 8.07 z-score
TGAGATCTCAGTCTCGATTAGTGCTAG: 0.392 z-score
TCATAACTCATTTTCATACTGTGCTAG: 1.79 z-score
TCGGTTTCCAAATTGTCTCTGTGCTAG: 6.81 z-score
TTAGACTTCAGTTCCGATTAGTGCTAG: 0.776 z-score
CAGCATGCCTGTCCCTGGGTGTGCTAG: -0.443 z-score
TTATGTATCCTTCTCCTTTAGTGCTAG: 2.08 z-score

Block 7
Target: ABI1, truncated, D143A, DHFR fusion (Arabidopsis thaliana)
Technique: DHFR PCA, deep sequencing
Medium: yeast
Notes: methotrexate growth selection, single substitutions
Together with: (+)-ABA 0.032 µM
Reference: wild-type fitted maximum
Reading: higher = stronger binding
Quantity: relative binding score
Starting sequence: PYL1, truncated, DHFR fusion (Arabidopsis thaliana); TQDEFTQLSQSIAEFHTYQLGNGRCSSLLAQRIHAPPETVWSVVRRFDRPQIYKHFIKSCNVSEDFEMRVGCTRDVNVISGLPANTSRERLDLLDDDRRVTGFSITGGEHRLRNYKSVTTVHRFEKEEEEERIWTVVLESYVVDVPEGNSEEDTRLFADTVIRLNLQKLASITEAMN
V143L: -2.99%
H110A: 41.5%
S104D: -8.28%
N114W: 0.287%
S27N: 35.9%
T1D: 23.6%
T6G: 29.9%
P50C: -0.594%
E151C: 19%
V121L: -1.64%
F5E: -2.39%
Q7A: 36.1%
R99C: 9.18%
